Published values pooled from the literature.
Each numbered part is a random draw from the data of one study; scales do not carry over between parts.

Study 1
Cell line: Huh-7
Concentration: 10 µM
Time: 24 h
| SMILES | viability [%] |
| --- | --- |
| NCCCC[C@H](N[C@@H](CCc1ccccc1)C(=O)O)C(=O)N1CCC[C@H]1C(=O)O | 100 |
| Cc1oncc1C(=O)Nc1ccc(C(F)(F)F)cc1 | 98.9 |
| CC1(C)S[C@@H]2[C@H](NC(=O)[C@H](NC(=O)N3CCNC3=O)c3ccccc3)C(=O)N2[C@H]1C(=O)O | 98.6 |
| C[C@@H]1O[C@@H]1P(=O)(O)O | 104 |
| NC(=O)c1ncn([C@@H]2O[C@H](CO)[C@@H](O)[C@H]2O)n1 | 92.7 |
| OC[C@H]1O[C@@H](O[C@@H]2[C@@H](CO)OC(O)(CO)[C@H]2O)[C@H](O)[C@@H](O)[C@H]1O (mixture of isomers) | 93.3 |
| Cc1ncc([N+](=O)[O-])n1CC(O)CCl (centres unmarked) | 100 |
| Cc1cnc(NC(=O)C2=C(O)c3ccccc3S(=O)(=O)N2C)s1 | 100 |
| Cc1ccc(C)c(OCCCC(C)(C)C(=O)O)c1 | 98.2 |
| CC(C)OC(=O)C(C)(C)Oc1ccc(C(=O)c2ccc(Cl)cc2)cc1 | 99.2 |

Study 2
Target: 5-hydroxytryptamine receptor 2B (HTR2B, Homo sapiens, UniProt P41595)
Chain of UniProt P41595 (whole entry, looked up): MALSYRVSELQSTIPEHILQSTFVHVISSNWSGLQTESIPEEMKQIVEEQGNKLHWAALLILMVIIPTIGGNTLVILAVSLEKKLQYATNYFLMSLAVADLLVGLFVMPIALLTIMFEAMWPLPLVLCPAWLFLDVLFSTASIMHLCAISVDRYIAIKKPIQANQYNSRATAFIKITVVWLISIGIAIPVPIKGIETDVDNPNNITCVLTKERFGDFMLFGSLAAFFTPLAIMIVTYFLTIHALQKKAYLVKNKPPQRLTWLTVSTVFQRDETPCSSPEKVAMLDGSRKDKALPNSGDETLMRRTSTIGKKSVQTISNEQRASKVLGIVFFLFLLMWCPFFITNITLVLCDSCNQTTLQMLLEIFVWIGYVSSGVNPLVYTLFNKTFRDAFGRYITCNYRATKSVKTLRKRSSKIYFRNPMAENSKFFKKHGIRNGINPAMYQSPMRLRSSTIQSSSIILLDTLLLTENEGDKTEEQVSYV
Read-out: ligand displacement
Concentration: 10 µM
| Compound | inhibition [%] |
| --- | --- |
| Cc1noc([C@H]2C[C@@H](c3ccc(C(F)(F)F)cc3)CN(C(=O)N3CCS(=O)(=O)C3)C2)n1 | 16.8 |
| C[C@@H]1CN(c2cc(-c3n[nH]c4ccc(OC5(C)CC5)cc34)ncn2)C[C@H](C)O1 | 41.4 |
| N#CC1(c2ccccn2)CCN(Cc2cc(C(=O)N3CCCC3)c(=O)n3ccccc23)CC1 | 5.44 |
| NS(=O)(=O)c1cc(NC(=O)Cc2ccccc2)ccc1Oc1cccc(Cl)c1 | 30.2 |
| C[C@@H](NC(=O)Nc1cc2[nH]ncc2c(CO)n1)c1ccccc1 | 13.1 |
| CS(=O)(=O)c1cc(C2(NC(=O)c3cncc4c3cnn4-c3ccc(F)cc3)CC2)ccn1 | 22.1 |
| CCOc1cc(N2C3COCC2CN(C(=O)[C@H]2C[C@H](O)CN2c2ccc(Cl)cc2)C3)ccc1Cl | 10.5 |
| CN(C)C(=O)c1sc2nc(N3CCC(S(C)(=O)=O)CC3)cc(C(F)(F)F)c2c1N | 47.5 |
| Cc1cc2c(-c3ccco3)cnc(N[C@H]3CCN(C)C[C@@H]3C(=O)NC3CCCCC3)c2[nH]c1=O | 24.3 |
| Cc1cc(Nc2nccc(C)n2)cc(-c2cnc([C@@]3(O)CC[C@H](C(=O)O)C(C)(C)C3)s2)c1 | 6.38 |
| NC(=O)c1ccc2nc(-c3ccc(C4(N)CCC4)cc3)c(-c3ccccc3)n2n1 | 13.4 |
| COCc1nc2cnc3cc(-c4c(C)noc4C)c(OC[C@H]4CCNC4)cc3c2n1[C@H](C)c1ccccc1 | -10.5 |
| CNC(=O)Nc1ccc2c(c1)CC[C@]21OC(=O)N(CC(=O)N(Cc2ccc(F)cc2)[C@@H](C)C(F)(F)F)C1=O | 81.4 |
| Cc1c(NC(=O)c2cc(C(N)=O)nc3cc(F)ccc23)c(C(F)(F)F)nn1Cc1ccc(C#N)cc1 | 11.1 |
| CCOc1ccc(S(=O)(=O)Nc2ccc(Cl)cc2C#Cc2cnc(C(=O)O)cc2OC)c2ncccc12 | 8.83 |
| CS(=O)(=O)N1CCCC(NC(=O)[C@H](CCC2CCCCC2)NC(=O)c2ccc(CNC(=O)c3cnc4ccccn34)cc2)C1 (some centres unmarked) | 12.2 |
| CC1=C(C#N)C(c2ccc3c(c2)c(NC(=O)c2ccccc2C)nn3C)C(C#N)=C(C)N1 | 11.4 |
| Nc1nc(NCc2ccccc2)nc(-c2cccc(CO)c2)n1 | 41.8 |

Study 3
Target: Serine/threonine-protein kinase Chk1 (CHEK1, Homo sapiens, UniProt O14757)
Read-out: enzyme activity
Action: inhibitor
Concentration: 0.5 µM
Reference: control
Residues (O14757 1-476): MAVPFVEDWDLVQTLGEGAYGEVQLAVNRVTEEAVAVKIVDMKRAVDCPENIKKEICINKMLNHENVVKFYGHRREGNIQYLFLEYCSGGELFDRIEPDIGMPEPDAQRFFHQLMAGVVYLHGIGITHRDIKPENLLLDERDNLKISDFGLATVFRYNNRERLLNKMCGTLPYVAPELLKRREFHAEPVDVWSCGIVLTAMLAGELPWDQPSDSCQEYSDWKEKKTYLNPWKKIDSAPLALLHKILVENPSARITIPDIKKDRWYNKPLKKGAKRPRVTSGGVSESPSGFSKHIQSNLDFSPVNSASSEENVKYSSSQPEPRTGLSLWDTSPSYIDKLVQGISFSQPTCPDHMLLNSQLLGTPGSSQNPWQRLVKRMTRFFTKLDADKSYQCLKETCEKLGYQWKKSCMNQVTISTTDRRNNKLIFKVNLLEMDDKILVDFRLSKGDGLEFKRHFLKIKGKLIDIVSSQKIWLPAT
| SMILES | remaining activity [%] |
| --- | --- |
| CCOc1nc(NC(=O)Cc2cc(OC)ccc2OC)cc(N)c1C#N | 151 |
| CCN(CC)C(=O)c1ccc(Nc2nc(OCC3CCCCC3)c3[nH]cnc3n2)cc1 | 66.1 |
| N#Cc1c(NC(=O)c2cccc3ccccc23)sc2c1CCCC2 | 104 |
| COc1cc2ncnc(Nc3ccc(O)c(Br)c3)c2cc1OC | 92.8 |
| c1ccc(-c2cnc(Nc3ccc(OCCN4CCCC4)cc3)s2)cc1 | 86.6 |
| O=C1C(Cl)=C(N2C(=O)CCC2=O)C(=O)c2ccccc21 | 111 |
| Nc1cccc(-c2cc3c(Oc4cccc(O)c4)ncnc3[nH]2)c1 | 66.2 |
| O=c1cc(-c2cccc3c2Sc2ccccc2S3)oc(N2CCOCC2)c1 | 109 |
| CN(C)C[C@H]1CCn2c(c(C3=C(c4cn(C)c5ccccc45)C(=O)NC3=O)c3ccccc32)C1 | 69.8 |
| CN([C@@H](Cc1ccc(OS(=O)(=O)c2cccc3cnccc23)cc1)C(=O)N1CCN(c2ccccc2)CC1)S(=O)(=O)c1cccc2cnccc12 | 99.5 |
| O=C(Nc1cccc(Nc2nccc(Nc3cccc(C(F)(F)F)c3)n2)c1)C1CC1 | 96.6 |
| O=C(NC(NC(=S)Nc1ccc(F)c([N+](=O)[O-])c1)C(Cl)(Cl)Cl)C(c1ccccc1)c1ccccc1 (centres unmarked) | 100 |
| COc1cc2c(cc1OC)-c1[nH]nc(Nc3cccc(F)c3)c1C2 | 92.4 |
| Ic1cccc(CSc2nnc(-c3ccncc3)o2)c1 | 96.3 |
| CCN(CC)CCNC(=O)c1c(C)[nH]c(/C=C2\C(=O)Nc3ccc(Cl)cc32)c1C | 15.1 |
| Cn1nc2c3c(cccc31)C(=O)c1ccccc1-2 | 93.7 |
| COc1cc2ncnc(Nc3cccc(Cl)c3)c2cc1OC | 93.7 |
| Cc1cc2ncc(-c3ccccc3)nc2cc1C | 94.2 |
| c1ccc(-c2[nH]ncc2-c2ccnc3ccccc23)nc1 | 99.7 |
| Cc1nc2cc3nc(-c4cccs4)cnc3cc2n1C | 99.8 |
| O=C1c2ccccc2-c2n[nH]c3cccc1c23 | 72.2 |
| Cc1cn(-c2cc(NC(=O)c3ccc(C)c(Nc4nccc(-c5cccnc5)n4)c3)cc(C(F)(F)F)c2)cn1 | 90.9 |

Study 4
Target: Calcium/calmodulin-dependent protein kinase type II subunit alpha (CAMK2A, Homo sapiens, UniProt Q9UQM7)
Chain of UniProt Q9UQM7 (whole entry, looked up): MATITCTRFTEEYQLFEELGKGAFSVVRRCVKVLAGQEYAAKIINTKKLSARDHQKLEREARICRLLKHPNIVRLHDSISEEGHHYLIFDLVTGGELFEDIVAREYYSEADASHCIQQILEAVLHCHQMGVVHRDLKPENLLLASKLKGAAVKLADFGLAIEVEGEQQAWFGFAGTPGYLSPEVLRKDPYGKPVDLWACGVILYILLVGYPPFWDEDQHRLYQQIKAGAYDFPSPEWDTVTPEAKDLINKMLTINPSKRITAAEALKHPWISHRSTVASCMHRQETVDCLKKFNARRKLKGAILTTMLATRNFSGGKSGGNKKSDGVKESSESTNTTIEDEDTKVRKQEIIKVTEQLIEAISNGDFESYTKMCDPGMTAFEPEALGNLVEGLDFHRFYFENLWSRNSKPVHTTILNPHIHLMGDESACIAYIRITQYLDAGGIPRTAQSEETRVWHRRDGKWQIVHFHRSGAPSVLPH
Read-out: enzyme activity
Action: inhibitor
Concentration: 10 µM
| SMILES | inhibition [%] |
| --- | --- |
| CC(C)n1nccc1-c1ncccc1COc1cccc(O)c1C=O | -4 |
| COc1ccccc1N1CCN(CC(O)COc2cccc3ccccc23)CC1 (centres unmarked) | -3 |
| CCc1cccc2c3c([nH]c12)C(CC)(CC(=O)O)OCC3 (centres unmarked) | -11 |
| CC(C)=CCC[C@@](C)(O)[C@H]1CC[C@]2(C)[C@@H]1[C@H](O)C[C@@H]1[C@@]3(C)C[C@@H](O)[C@H](O[C@@H]4O[C@H](CO)[C@@H](O)[C@H](O)[C@H]4O[C@@H]4O[C@H](CO)[C@@H](O)[C@H](O)[C@H]4O)C(C)(C)[C@@H]3CC[C@]12C | 47 |
| C=C(C#N)C(=O)OCCCC | -3 |
| C[C@H]1O[C@@H](O[C@@H]2CC[C@@]3(C)[C@@H](CC[C@]4(C)[C@@H]3C=C[C@]35OC[C@@]6(CCC(C)(C)C[C@H]63)[C@@H](O)C[C@]54C)[C@@]2(C)CO)[C@H](O)[C@@H](O)[C@H]1O (stereo in doubt) | 6 |
| CCN(CC)C(=O)[C@@]1(c2ccccc2)C[C@H]1CN | -14 |
| OC[C@H]1O[C@H](OC[C@H]2OC(O)(CO)[C@@H](O)[C@@H]2O)[C@H](O)[C@@H](O)[C@@H]1O (some centres unmarked) | -47 |
| C[C@]12CCC(=O)C=C1CC[C@@H]1[C@@H]2C(=O)C[C@@]2(C)[C@H]1CC[C@]2(O)C(=O)CO | 26 |
| O=C1c2c(O)cccc2Cc2cccc(O)c21 | 3 |
| Oc1ccc2ccccc2c1 | 24 |
| COC(c1ccccc1)(c1ccccc1)[C@H](Oc1nc(C)cc(C)n1)C(=O)O | 3 |
| CCCCCCCCCCCCCC1=C(O)C(=O)C=C(O)C1=O | -6 |
| O=C(O)CNC(=O)/C=C/c1ccccc1 | -14 |
| NC(=O)c1cc[n+](CC2=C(C(=O)O)N3C(=O)[C@@H](NC(=O)[C@@H](c4ccccc4)S(=O)(=O)[O-])[C@H]3SC2)cc1 | -19 |

Some of these lines once more (study 2):
| Compound | inhibition [%] |
| --- | --- |
| C[C@@H]1CN(c2cc(-c3n[nH]c4ccc(OC5(C)CC5)cc34)ncn2)C[C@H](C)O1 | 41.4 |
| CNC(=O)Nc1ccc2c(c1)CC[C@]21OC(=O)N(CC(=O)N(Cc2ccc(F)cc2)[C@@H](C)C(F)(F)F)C1=O | 81.4 |
| Cc1cc(Nc2nccc(C)n2)cc(-c2cnc([C@@]3(O)CC[C@H](C(=O)O)C(C)(C)C3)s2)c1 | 6.38 |
| NC(=O)c1ccc2nc(-c3ccc(C4(N)CCC4)cc3)c(-c3ccccc3)n2n1 | 13.4 |
